Published values pooled from the literature.
Protocols differ between the studies behind these lines. Numbers after ± are the reported error.

| SMILES | organism | assay | test system | setting | scale | measurement | result |
| --- | --- | --- | --- | --- | --- | --- | --- |
| C[C@H](NC(=O)[C@H](Cc1c[nH]cn1)NC(=O)[C@H](CO)NC(=O)[C@@H](N)CC(=O)O)C(=O)N[C@@H](CCCNC(=N)N)C(=O)N[C@@H](CCCNC(=N)N)C(=O)N[C@@H](Cc1c[nH]cn1)C(=O)N[C@@H](Cc1c[nH]cn1)C(=O)NCC(=O)N[C@@H](Cc1ccc(O)cc1)C(=O)N[C@@H](CCCCN)C(=O)N[C@@H](CCCNC(=N)N)C(=O)N[C@@H](CCCCN)C(=O)N[C@@H](Cc1ccccc1)C(=O)N[C@@H](Cc1c[nH]cn1)C(=O)N[C@@H](CCC(=O)O)C(=O)N[C@@H](CCCCN)C(=O)N[C@@H](Cc1c[nH]cn1)C(=O)N[C@@H](Cc1c[nH]cn1)C(=O)N[C@@H](CO)C(=O)N[C@@H](Cc1c[nH]cn1)C(=O)N[C@@H](CCCNC(=N)N)C(=O)NCC(=O)N[C@@H](Cc1ccc(O)cc1)C(=O)O | Candida albicans |  | ATCC 90028 | 2 h, 37 °C | relative to: parent peptide | intact peptide remaining | no effect |
| CC1CCC(C(C)(C)C(=O)Nc2ccc(Oc3ccccc3)cc2)CC1 (centres unmarked) | Plasmodium falciparum |  | 3D7 |  | relative to: CC50 Ba/F3 over IC50 | selectivity index | > 260 |
| CCCCNCC(O)Cn1c2ccc(Cl)cc2c2cc(Cl)ccc21 (centres unmarked) | Plasmodium falciparum |  | WI-38, 3D7 |  | relative to: CC50 WI-38 over IC50 P. falciparum | selectivity index | 32 |
| COc1ccc(CNc2nc(N3CCC[C@H]3CO)ncc2C(=O)NN)cc1Cl | Salmonella typhimurium |  | TA100 | 1000 µg/plate, 48 h, with: rat liver S9 |  | revertant count | 159 ± 32 |
| CN(C)CCNC(=O)/C=C/C(Cc1ccccc1)Nc1ccnc2cc(Cl)ccc12 (centres unmarked) | Plasmodium falciparum |  | Vero, K1 chloroquine-resistant |  | relative to: CC50 Vero over IC50 parasite | selectivity ratio | 232 |
| CCC(=O)N(C)c1ccc(Cl)c(Cl)c1 | Salmonella typhimurium | Ames test | TA98 | 0.50 mg/plate, without S9 activation |  | revertants | 12 ± 3.5 revertants/plate |
| CC(=NNC(=N)N)c1nnn(-c2ccc(C#CC3(O)CCCCC3)cc2)c1C | Neisseria gonorrhoeae |  | Caco-2, 181 |  | relative to: Caco-2 IC50 over MIC | selectivity index | 0.69 |
| COc1ccc(CNc2nc(N3CCC[C@H]3CO)ncc2C(=O)NNC(=O)c2cnc(N3CCC[C@H]3CO)nc2NCc2ccc(OC)c(Cl)c2)cc1Cl | Salmonella typhimurium |  | TA98 | 62.5 µg/plate, 48 h |  | revertant count | 31 ± 6 |
| CC(C)N1CCCCC1C(=O)NC(Cc1ccc(-c2ccccc2)cc1)B(O)O (centres unmarked) | Plasmodium falciparum |  | 3D7, NODscidIL2Rγnull mouse, whole blood | oral, dose not given, first day of treatment |  | time above in vitro LD50 | ≥ 6 h |
| CC1CC2OCOC2C(OC2CCC3(C=O)C4CCC5(C)C(C6=CC(=O)OC6)CCC5(O)C4CCC3(O)C2)O1 (centres unmarked) | transmissible gastroenteritis virus |  | ST, TGEV-infected | 6 h post infection |  | CC50 | > 10 µM |
| NC(=O)N1c2ccccc2C=Cc2ccccc21 | Danio rerio |  | zebrafish, male | waterborne exposure, 10 µg/L nominal, 7 d |  | plasma concentration | 1310 ng/mL |

Some of these lines once more:
| SMILES | organism | assay | test system | setting | scale | measurement | result |
| --- | --- | --- | --- | --- | --- | --- | --- |
| CC(C)N1CCCCC1C(=O)NC(Cc1ccc(-c2ccccc2)cc1)B(O)O (centres unmarked) | Plasmodium falciparum |  | 3D7, NODscidIL2Rγnull mouse, whole blood | oral, dose not given, first day of treatment |  | time above in vitro LD50 | ≥ 6 h |
